Experimental data pooled from the literature.
Lines come from different studies, so protocols differ. Numbers after ± are the reported error.
Chain of UniProt Q99895 (whole entry, looked up): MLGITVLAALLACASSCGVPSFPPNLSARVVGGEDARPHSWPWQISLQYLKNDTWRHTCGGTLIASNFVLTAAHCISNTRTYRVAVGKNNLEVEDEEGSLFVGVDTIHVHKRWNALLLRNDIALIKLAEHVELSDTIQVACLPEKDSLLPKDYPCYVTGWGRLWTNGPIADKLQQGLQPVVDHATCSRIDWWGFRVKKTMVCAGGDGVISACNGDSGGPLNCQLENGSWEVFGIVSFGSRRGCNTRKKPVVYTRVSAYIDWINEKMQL

N=C(N)NCCC[C@@H]1NC(=O)[C@H](CCCCNC(=O)CCC(NC(=S)Nc2ccc(CC3CN(CC(=O)O)CCN(CC(=O)O)CCN(CC(=O)O)CCN3CC(=O)O)cc2)C(=O)NCCCC[C@@H]2NC(=O)[C@@H](Cc3ccc(O)cc3)NC(=O)[C@H](CC(=O)O)NC(=O)CNC(=O)[C@H](CCCNC(=N)N)NC2=O)NC(=O)[C@@H](Cc2ccc(O)cc2)NC(=O)[C@H](CC(=O)O)NC(=O)CNC1=O (some centres unmarked) [scandium-44 labelled]
tissue uptake (PET imaging ROI; female athymic nude mice, U-87 MG xenograft, liver; intravenous, 4 h, together with: cRGD 50 mg/kg blocking): 0.05 ± 0.01 %ID/g

CCCC[C@H](NC(=O)CN1CCC(NC(=O)CN2CCN(CC(N)=O)CCN(CC(N)=O)CCN(CC(N)=O)CC2)CC1)C(=O)N[C@H]1CC(=O)NCCCC[C@@H](C(N)=O)NC(=O)[C@H](Cc2c[nH]c3ccccc23)NC(=O)[C@H](CCCNC(=N)N)NC(=O)[C@@H](Cc2ccccc2)NC(=O)[C@H](Cc2c[nH]cn2)NC1=O [lead-203 labelled]
SUVmean (SPECT/CT; male C57BL/6J mice, B16-F10 tumour, liver; intravenous, 20 pmol, 2 h, 203Pb-labelled): 2.02 SUV

CC[C@H](C)[C@@H]([C@@H](CC(=O)N1CCC[C@H]1[C@H](OC)[C@@H](C)C(=O)N[C@H](C)[C@@H](O)c1ccccc1)OC)N(C)C(=O)[C@@H](NC(=O)[C@H](C(C)C)N(C)C(=O)OCc1ccc(NC(=O)[C@H](CCCNC(N)=O)NC(=O)[C@@H](NC(=O)CCCCCN2C(=O)CC(SC[C@H](NC(=O)[C@H](CC(=O)O)NC(=O)[C@H](Cc3ccc(O)cc3)NC(=O)[C@H](Cc3c[nH]c4ccccc34)NC(=O)[C@@H](N)CCCNC(=N)N)C(=O)O)C2=O)C(C)C)cc1)C(C)C (some centres unmarked)
concentration (C57BL/6 mice (healthy), serum; intraperitoneal, 2.5 mg/kg, 0.167 h): 42 ± 16.7 nM

CC[C@H](C)[C@H](NC(=O)[C@H](CO)NC(=O)[C@H](Cc1ccc(O)cc1)NC(=O)[C@H](Cc1ccc(O)cc1)NC(=O)[C@H](CC(N)=O)NC(=O)CNC(=O)[C@H](CO)NC(=O)[C@H](Cc1ccc(O)cc1)NC(=O)[C@H](CO)NC(=O)[C@H](CO)NC(=O)[C@H](CC(N)=O)NC(=O)COCCOCCNC(=O)CN1CCN(CC(=O)O)CCN(CC(=O)O)CCN(CC(=O)O)CC1)C(=O)N[C@@H](CC(C)C)C(N)=O [copper-64 labelled]
tissue uptake (dynamic PET; KPC mouse Ptf1a-CreER tdTomato, metastases; intravenous, 4.6 MBq/mouse, 12.5 min, 84 d after tamoxifen): 14.1 %ID/mL

CC(=O)N[C@@H](CC(C)C)C(=O)N[C@H](C(=O)N[C@@H](Cc1ccccc1)C(=O)N[C@]1(C)CCCCCC/C=C/CCC[C@@](C)(C(=O)N[C@@H](C)C(=O)N[C@@H](C)C(=O)N[C@@H](C)C(=O)N[C@@H](C)C(=O)N[C@@H](C)C(=O)N[C@H](C)C(N)=O)NC(=O)[C@H](CC(C)C)NC(=O)[C@H](CCCCNC(=O)CCNC(=O)C[C@@H]2N=C(c3ccc(Cl)cc3)c3c(sc(C)c3C)-n3c(C)nnc32)NC(=O)[C@H](C)NC(=O)[C@H](Cc2c[nH]c3ccccc23)NC(=O)[C@H](Cc2ccc(O)cc2)NC(=O)[C@H](C)NC1=O)[C@@H](C)O
lymphocytes (C57BL/6 mouse, blood; intravenous, 3 mg/kg twice weekly, 3 weeks): 71.1%

CC(C)C[C@@H]1NC(=O)[C@H](CC(C)C)NC(=O)[C@H](CC(C)C)NC(=O)[C@H](Cc2c[nH]c3ccccc23)NC(=O)[C@@H]2CSSC[C@@H]3NC(=O)[C@H]([C@@H](C)O)NC(=O)[C@H](CC(N)=O)NC(=O)[C@H](CSSC[C@@H](C(=O)N[C@@H](CC(=O)O)C(=O)N[C@@H](CCC(N)=O)C(=O)O)NC1=O)NC(=O)[C@H](CCCCN)NC(=O)[C@H](CC(=O)O)NC(=O)[C@H](CCCCN)NC(=O)[C@H](Cc1ccccc1)NC(=O)[C@H]([C@@H](C)O)NC(=O)[C@H]([C@@H](C)O)NC(=O)CNC(=O)[C@@H]1CCCN1C(=O)[C@H](CCC(=O)O)NC(=O)[C@@H](NC(=O)[C@@H](NC(=O)[C@@H](NC(=O)[C@H](CCC(=O)O)NC(=O)[C@H](CO)NC(=O)CN)C(C)C)[C@@H](C)O)CSSC[C@H](NC(=O)[C@H](CCCNC(=N)N)NC3=O)C(=O)NCC(=O)N[C@@H](CO)C(=O)N[C@@H](CC(=O)O)C(=O)NCC(=O)N[C@@H](CCCCN)C(=O)N[C@@H](CO)C(=O)N[C@@H](C)C(=O)N[C@@H](Cc1c[nH]c3ccccc13)C(=O)N2
time to full digestion (Chymotrypsin-C (Homo sapiens, UniProt Q99895); substrate, LC-MS; 15 µM, pH 8.0, 25 °C): ≤ 2 days

CSCC[C@@H]1NC(=O)[C@@H]2CCCN2C(=O)[C@H](C(C)C)NC(=O)[C@@H](NC(=S)Nc2ccc(CC3CN(CC(=O)O)CCN(CC(=O)O)CCN3CC(=O)O)cc2)CSSC[C@@H](C(=O)O)NC(=O)[C@H](C)NC(=O)[C@H](CCCNC(=N)N)NC(=O)[C@H](Cc2ccc(O)cc2)NC(=O)[C@H]([C@@H](C)O)NC1=O (some centres unmarked) [gallium-68 labelled]
tumour to liver ratio (PET; mouse B16-F10 tumour; intravenous, 1 h): 1.18 ± 0.23

CC(C)C[C@H](NC(=O)[C@@H](N)Cc1ccccc1)C(=O)N[C@@H](C)C(=O)N[C@H]1CSCc2cccc(n2)CSC[C@@H](C(=O)N[C@H](C(=O)NCC(=O)N[C@@H](CO)C(=O)N[C@@H](Cc2c[nH]c3ccccc23)C(=O)N[C@@H](CCCCNC(=O)CN2CCN(CC(=O)O)CCN(CC(=O)O)CCN(CC(=O)O)CC2)C(N)=O)[C@@H](C)O)NC(=O)[C@H](Cc2c[nH]cn2)NC(=O)[C@H]([C@@H](C)O)NC(=O)[C@H](CCC(=O)O)NC(=O)[C@@H]2CCCN2C1=O [gallium-68 labelled]
tumour uptake (PET/CT imaging; C57BL/6J mouse, B16-F10 tumour, tumour; iv, 3.7 MBq, 1 h): 4.5 %ID/g

Some of these lines once more:
CC(C)C[C@@H]1NC(=O)[C@H](CC(C)C)NC(=O)[C@H](CC(C)C)NC(=O)[C@H](Cc2c[nH]c3ccccc23)NC(=O)[C@@H]2CSSC[C@@H]3NC(=O)[C@H]([C@@H](C)O)NC(=O)[C@H](CC(N)=O)NC(=O)[C@H](CSSC[C@@H](C(=O)N[C@@H](CC(=O)O)C(=O)N[C@@H](CCC(N)=O)C(=O)O)NC1=O)NC(=O)[C@H](CCCCN)NC(=O)[C@H](CC(=O)O)NC(=O)[C@H](CCCCN)NC(=O)[C@H](Cc1ccccc1)NC(=O)[C@H]([C@@H](C)O)NC(=O)[C@H]([C@@H](C)O)NC(=O)CNC(=O)[C@@H]1CCCN1C(=O)[C@H](CCC(=O)O)NC(=O)[C@@H](NC(=O)[C@@H](NC(=O)[C@@H](NC(=O)[C@H](CCC(=O)O)NC(=O)[C@H](CO)NC(=O)CN)C(C)C)[C@@H](C)O)CSSC[C@H](NC(=O)[C@H](CCCNC(=N)N)NC3=O)C(=O)NCC(=O)N[C@@H](CO)C(=O)N[C@@H](CC(=O)O)C(=O)NCC(=O)N[C@@H](CCCCN)C(=O)N[C@@H](CO)C(=O)N[C@@H](C)C(=O)N[C@@H](Cc1c[nH]c3ccccc13)C(=O)N2
time to full digestion (Chymotrypsin-C (Homo sapiens, UniProt Q99895); substrate, LC-MS; 15 µM, pH 8.0, 25 °C): ≤ 2 days
